Results pooled from the literature.
A part holds a random share of what one study measured.
Chain of UniProt Q8IVW4 (whole entry, looked up): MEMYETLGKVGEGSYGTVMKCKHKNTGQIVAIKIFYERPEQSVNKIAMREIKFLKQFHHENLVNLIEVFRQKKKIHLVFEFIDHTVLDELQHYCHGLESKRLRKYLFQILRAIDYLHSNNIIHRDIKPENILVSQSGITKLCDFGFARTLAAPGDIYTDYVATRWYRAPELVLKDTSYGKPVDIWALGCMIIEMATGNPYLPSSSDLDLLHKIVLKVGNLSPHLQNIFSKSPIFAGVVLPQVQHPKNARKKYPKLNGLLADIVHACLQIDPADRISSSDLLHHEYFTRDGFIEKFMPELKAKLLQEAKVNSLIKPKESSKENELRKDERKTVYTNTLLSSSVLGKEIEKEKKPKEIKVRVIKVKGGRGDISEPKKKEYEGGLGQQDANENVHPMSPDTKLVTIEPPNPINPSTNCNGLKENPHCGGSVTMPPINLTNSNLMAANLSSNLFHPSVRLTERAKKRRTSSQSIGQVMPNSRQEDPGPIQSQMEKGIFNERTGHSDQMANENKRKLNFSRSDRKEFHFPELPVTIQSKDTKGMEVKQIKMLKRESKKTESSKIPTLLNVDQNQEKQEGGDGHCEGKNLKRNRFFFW
Chain of UniProt P15056 (whole entry, looked up): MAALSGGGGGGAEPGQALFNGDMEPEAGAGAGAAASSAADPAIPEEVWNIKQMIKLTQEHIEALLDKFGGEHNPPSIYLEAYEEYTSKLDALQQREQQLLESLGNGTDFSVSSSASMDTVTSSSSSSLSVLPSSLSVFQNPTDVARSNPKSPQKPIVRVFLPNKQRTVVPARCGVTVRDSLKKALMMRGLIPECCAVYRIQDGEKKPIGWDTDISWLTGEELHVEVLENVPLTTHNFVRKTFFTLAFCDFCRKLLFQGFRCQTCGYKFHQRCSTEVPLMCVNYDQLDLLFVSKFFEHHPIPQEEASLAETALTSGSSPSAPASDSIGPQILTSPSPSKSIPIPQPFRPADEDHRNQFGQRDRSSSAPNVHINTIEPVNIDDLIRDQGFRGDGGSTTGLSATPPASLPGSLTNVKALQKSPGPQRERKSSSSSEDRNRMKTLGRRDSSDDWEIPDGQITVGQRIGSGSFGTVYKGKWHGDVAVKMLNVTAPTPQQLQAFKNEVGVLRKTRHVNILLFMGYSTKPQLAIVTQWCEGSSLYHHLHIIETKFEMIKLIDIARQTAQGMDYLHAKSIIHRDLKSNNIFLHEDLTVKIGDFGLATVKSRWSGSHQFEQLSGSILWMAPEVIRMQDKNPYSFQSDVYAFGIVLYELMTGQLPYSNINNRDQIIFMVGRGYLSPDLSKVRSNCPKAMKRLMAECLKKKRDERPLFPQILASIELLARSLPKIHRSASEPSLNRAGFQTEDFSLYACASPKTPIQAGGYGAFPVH
Chain of UniProt P27448 (whole entry, looked up): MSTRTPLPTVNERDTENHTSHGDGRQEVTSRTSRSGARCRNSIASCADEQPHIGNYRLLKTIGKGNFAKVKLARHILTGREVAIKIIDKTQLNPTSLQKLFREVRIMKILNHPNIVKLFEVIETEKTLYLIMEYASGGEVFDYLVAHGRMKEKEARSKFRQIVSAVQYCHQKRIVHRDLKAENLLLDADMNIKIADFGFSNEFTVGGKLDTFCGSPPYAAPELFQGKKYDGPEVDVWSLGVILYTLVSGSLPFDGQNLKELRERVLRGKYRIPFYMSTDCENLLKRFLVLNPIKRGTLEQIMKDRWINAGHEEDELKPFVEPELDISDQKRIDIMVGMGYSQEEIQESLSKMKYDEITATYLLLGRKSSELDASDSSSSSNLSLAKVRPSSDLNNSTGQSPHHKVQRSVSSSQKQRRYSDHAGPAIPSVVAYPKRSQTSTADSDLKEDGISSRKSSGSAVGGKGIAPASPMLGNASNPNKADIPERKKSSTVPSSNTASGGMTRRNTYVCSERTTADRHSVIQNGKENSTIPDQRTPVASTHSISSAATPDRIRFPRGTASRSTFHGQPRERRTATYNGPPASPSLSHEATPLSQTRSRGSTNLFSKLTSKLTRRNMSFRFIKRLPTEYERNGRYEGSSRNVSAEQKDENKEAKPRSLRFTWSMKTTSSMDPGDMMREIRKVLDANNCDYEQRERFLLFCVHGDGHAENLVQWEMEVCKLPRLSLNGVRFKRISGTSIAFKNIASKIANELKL
Chain of UniProt Q6PHR2 (whole entry, looked up): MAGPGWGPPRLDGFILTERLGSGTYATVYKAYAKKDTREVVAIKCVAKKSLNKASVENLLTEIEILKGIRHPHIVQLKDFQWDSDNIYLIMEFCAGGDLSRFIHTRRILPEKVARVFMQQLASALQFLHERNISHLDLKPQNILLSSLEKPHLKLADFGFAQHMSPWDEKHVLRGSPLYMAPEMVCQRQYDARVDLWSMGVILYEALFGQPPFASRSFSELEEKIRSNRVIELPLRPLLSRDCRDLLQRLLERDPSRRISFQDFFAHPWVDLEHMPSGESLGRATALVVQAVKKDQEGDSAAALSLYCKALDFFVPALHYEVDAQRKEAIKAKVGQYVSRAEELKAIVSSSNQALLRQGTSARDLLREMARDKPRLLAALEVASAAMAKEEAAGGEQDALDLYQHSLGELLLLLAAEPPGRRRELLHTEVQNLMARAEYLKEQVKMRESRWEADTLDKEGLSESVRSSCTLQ
Chain of UniProt Q96PN8 (whole entry, looked up): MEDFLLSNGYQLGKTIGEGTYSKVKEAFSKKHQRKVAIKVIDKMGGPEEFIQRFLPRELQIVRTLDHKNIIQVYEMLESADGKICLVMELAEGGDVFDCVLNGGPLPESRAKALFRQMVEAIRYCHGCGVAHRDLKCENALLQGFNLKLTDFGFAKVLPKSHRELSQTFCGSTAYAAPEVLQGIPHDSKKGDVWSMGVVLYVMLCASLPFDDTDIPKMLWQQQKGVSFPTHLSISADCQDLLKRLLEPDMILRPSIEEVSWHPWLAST

Series 1
SMILES: CN(C1COC1)C(C)(C)/C=C(\C#N)C(=O)N1CCC[C@H]1Cn1nc(-c2ccc(Oc3ccccc3)cc2F)c2c(N)ncnc21
Effect on: kinase activity
target | conditions | inhibition
CLK2 (Homo sapiens, UniProt P49760) | 0.1 µM | 4%
MAPK1 (Homo sapiens, UniProt P28482) | 1 µM | -2%
PDGFRA (Homo sapiens, UniProt P16234) | 1 µM | 11%
PRKCE (Homo sapiens, UniProt Q02156) | 0.1 µM | 3%
MAPK10 (Homo sapiens, UniProt P53779) | 1 µM | -6%
EPHA4 (Homo sapiens, UniProt P54764) | 0.1 µM | 2%
RPS6KA2 (Homo sapiens, UniProt Q15349) | 0.1 µM | 6%
BRAF (Homo sapiens, UniProt P15056) | 0.1 µM | 0%
IGF1R (Homo sapiens, UniProt P08069) | 1 µM | -6%
SRPK3 (Homo sapiens, UniProt Q9UPE1) | 1 µM | -2%
EPHA1 (Homo sapiens, UniProt P21709) | 1 µM | 7%
CHUK (Homo sapiens, UniProt O15111) | 1 µM | -2%

Series 2
SMILES: C[C@@H]1CN(c2ccc(-c3cc(C(=O)NCCOCCOCCOCCOCCOCCOCCNC(=O)/C=C/c4[nH]cc(C(=O)N[C@@H](CC(N)=O)c5ccc(F)c(Cl)c5)c4-c4ccc(Cl)cc4F)ccc3F)cc2NC(=O)c2ccc(F)cc2C(F)(F)F)C[C@H](C)N1C
Effect on: thermal unfolding
Method: differential scanning fluorimetry
Concentration: 5.5 µM
Direction: higher = more unfolded
WDR5: WD repeat-containing protein 5 (WDR5, Homo sapiens, UniProt P61964)
DCAF1: DDB1- and CUL4-associated factor 1 (DCAF1, Homo sapiens, UniProt Q9Y4B6)
Chain of UniProt Q9Y4B6 (whole entry, looked up): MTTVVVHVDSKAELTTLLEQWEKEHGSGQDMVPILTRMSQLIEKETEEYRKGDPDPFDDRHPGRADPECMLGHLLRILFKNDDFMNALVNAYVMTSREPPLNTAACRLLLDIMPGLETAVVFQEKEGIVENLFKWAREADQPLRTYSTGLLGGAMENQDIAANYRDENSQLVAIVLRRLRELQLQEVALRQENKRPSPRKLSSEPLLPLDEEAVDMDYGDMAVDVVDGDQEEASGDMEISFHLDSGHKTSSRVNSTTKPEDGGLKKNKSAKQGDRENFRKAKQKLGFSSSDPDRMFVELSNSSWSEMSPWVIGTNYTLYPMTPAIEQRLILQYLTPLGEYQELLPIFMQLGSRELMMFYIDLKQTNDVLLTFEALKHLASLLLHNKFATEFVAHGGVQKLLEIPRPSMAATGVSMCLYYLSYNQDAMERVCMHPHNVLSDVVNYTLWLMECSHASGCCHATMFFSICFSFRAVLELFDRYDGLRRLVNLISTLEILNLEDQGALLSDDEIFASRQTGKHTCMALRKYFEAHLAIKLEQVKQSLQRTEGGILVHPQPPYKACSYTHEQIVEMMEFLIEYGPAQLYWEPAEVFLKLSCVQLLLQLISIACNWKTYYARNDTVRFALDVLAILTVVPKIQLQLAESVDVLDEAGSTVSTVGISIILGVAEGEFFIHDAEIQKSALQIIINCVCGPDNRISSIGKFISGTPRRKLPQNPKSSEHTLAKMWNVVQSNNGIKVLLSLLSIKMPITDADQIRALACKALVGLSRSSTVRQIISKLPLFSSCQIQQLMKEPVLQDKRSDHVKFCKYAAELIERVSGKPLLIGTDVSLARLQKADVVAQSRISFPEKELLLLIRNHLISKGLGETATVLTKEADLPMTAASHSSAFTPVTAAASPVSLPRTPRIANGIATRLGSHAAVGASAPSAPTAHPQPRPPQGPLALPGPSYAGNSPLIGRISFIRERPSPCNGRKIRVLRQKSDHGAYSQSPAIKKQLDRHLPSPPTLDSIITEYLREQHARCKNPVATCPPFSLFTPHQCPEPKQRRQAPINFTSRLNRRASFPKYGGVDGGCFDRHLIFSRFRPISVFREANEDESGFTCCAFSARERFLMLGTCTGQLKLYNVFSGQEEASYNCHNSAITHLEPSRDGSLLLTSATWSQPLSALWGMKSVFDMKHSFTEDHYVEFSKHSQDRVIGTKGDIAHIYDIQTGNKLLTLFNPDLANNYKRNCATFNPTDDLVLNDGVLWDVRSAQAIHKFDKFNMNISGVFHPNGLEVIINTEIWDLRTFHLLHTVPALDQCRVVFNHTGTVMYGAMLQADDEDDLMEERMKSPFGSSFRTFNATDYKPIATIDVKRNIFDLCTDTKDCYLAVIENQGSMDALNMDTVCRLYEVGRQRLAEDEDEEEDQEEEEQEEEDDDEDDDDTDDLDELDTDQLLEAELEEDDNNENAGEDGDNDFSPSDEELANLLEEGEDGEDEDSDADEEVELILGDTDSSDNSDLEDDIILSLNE
target | conditions | SYPRO Orange fluorescence [a.u.]
WDR5 | 58.81 °C | 15700
DCAF1 | 94.21 °C | 29200
DCAF1 | 65.61 °C | 53100
WDR5 | 52.61 °C | 16600
WDR5 | 30.6 °C | 13600
DCAF1 | 69.01 °C | 49300
DCAF1 | 56.81 °C | 33500

Series 3
Structure (SMILES): CC[C@@]1(c2ccccc2)C2=C(CC(C)(C)CC2=O)Nc2n[nH]cc21
Concentration: 1 µM
target | test | scale | remaining binding
Tyrosine-protein kinase ABL1, phosphorylated (ABL1, Homo sapiens, UniProt P00519, T315I) | kinase binding, KINOMEscan | relative to: DMSO control | 100%
TGFBR2 (Homo sapiens, UniProt P37173) | binding, competition with immobilised ligand | – | 100%
FLT3 ITD, human | KINOMEscan | – | 100%
ACVR2A (Homo sapiens, UniProt P27037) | binding, competition with immobilised ligand | – | 100%
FES (Homo sapiens, UniProt P07332) | binding, competition with immobilised ligand | – | 100%
CLK3 (Homo sapiens, UniProt P49761) | binding, competition with immobilised ligand | – | 97%
FGR (Homo sapiens, UniProt P09769) | binding, competition with immobilised ligand | – | 100%
RIPK2 (Homo sapiens, UniProt O43353) | kinase binding, KINOMEscan | relative to: DMSO control | 100%
CDKL3 (Homo sapiens, UniProt Q8IVW4) | kinase binding, KINOMEscan | relative to: DMSO control | 100%
TSSK3 (Homo sapiens, UniProt Q96PN8) | kinase binding, KINOMEscan | relative to: DMSO control | 98%
ULK3 (Homo sapiens, UniProt Q6PHR2) | kinase binding, KINOMEscan | relative to: DMSO control | 84%
MARK3 (Homo sapiens, UniProt P27448) | kinase binding, KINOMEscan | relative to: DMSO control | 90%
EGFR (Homo sapiens, UniProt P00533, G719S) | kinase binding, KINOMEscan | relative to: DMSO control | 100%
CAMK2A (Homo sapiens, UniProt Q9UQM7) | binding, competition with immobilised ligand | – | 95%
HIPK2 (Homo sapiens, UniProt Q9H2X6) | binding, competition with immobilised ligand | – | 78%
LRRK2 (Homo sapiens, UniProt Q5S007) | binding, competition with immobilised ligand | – | 70%

Series 4
Target: Sodium-dependent neutral amino acid transporter B(0)AT1 (SLC6A19, Homo sapiens, UniProt Q695T7)
Chain of UniProt Q695T7 (whole entry, looked up): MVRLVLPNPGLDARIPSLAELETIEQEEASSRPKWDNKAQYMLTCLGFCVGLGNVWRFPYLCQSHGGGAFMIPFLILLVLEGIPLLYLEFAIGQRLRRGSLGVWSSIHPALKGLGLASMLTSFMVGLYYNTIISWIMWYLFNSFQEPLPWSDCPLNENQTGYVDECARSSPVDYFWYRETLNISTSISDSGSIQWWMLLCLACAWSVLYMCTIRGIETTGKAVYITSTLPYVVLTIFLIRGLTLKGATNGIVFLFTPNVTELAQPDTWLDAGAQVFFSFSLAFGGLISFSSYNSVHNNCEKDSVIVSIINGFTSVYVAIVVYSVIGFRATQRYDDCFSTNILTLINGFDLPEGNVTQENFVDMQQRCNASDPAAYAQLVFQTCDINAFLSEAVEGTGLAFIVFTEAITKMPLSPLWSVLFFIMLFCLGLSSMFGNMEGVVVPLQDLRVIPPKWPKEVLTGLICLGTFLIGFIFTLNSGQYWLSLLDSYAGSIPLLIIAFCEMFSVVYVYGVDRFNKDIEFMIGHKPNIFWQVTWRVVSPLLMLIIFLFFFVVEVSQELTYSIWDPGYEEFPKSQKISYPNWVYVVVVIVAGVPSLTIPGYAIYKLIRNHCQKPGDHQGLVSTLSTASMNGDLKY
Action: inhibitor
Method: FLIPR membrane potential
Cells: CHO-BC cells
Concentration: 0.001 µM
Structure (SMILES) | normalised transport activity
CCNC(=O)COc1ccc(I)c(C)c1 | 0.905
CCNC(=O)COc1ccc(Br)c(C)c1 | 0.953
Cc1cc(NCC(=O)NC(C)C)ccc1Br | 1

For quick reference, copied from above (series 1):
target | conditions | inhibition
PDGFRA (Homo sapiens, UniProt P16234) | 1 µM | 11%
PRKCE (Homo sapiens, UniProt Q02156) | 0.1 µM | 3%
MAPK10 (Homo sapiens, UniProt P53779) | 1 µM | -6%
EPHA4 (Homo sapiens, UniProt P54764) | 0.1 µM | 2%
